Measurements from different studies.
A part holds a random share of what one study measured.
Chain of UniProt Q15418 (whole entry, looked up): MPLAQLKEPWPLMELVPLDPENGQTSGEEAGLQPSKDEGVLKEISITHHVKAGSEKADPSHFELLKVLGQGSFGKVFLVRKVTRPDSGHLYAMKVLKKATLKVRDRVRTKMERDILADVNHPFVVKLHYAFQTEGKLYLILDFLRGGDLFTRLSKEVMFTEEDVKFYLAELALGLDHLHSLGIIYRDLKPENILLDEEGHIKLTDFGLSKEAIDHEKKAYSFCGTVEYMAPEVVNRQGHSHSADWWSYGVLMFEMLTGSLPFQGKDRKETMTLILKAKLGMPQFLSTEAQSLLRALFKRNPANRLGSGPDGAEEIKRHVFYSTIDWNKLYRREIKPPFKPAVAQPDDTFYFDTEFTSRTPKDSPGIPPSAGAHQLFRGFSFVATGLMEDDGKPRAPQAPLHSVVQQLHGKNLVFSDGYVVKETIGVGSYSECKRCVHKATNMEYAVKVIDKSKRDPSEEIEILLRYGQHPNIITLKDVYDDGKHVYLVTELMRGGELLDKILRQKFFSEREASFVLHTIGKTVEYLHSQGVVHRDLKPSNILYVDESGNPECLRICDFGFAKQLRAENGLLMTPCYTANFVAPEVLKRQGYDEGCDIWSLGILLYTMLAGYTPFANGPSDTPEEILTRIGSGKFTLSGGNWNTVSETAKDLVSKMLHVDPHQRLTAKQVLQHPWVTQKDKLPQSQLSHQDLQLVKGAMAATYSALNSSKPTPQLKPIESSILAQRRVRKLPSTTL
Chain of UniProt Q6P2M8 (whole entry, looked up): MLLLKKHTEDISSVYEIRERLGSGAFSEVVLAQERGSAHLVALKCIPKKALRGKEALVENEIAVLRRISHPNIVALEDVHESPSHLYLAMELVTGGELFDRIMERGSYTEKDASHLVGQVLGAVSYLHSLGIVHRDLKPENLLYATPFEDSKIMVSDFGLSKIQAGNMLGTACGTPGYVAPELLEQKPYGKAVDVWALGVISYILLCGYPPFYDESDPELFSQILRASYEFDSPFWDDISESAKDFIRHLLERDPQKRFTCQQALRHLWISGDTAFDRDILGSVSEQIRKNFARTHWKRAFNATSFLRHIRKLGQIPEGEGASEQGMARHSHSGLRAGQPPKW
Chain of UniProt P22455 (whole entry, looked up): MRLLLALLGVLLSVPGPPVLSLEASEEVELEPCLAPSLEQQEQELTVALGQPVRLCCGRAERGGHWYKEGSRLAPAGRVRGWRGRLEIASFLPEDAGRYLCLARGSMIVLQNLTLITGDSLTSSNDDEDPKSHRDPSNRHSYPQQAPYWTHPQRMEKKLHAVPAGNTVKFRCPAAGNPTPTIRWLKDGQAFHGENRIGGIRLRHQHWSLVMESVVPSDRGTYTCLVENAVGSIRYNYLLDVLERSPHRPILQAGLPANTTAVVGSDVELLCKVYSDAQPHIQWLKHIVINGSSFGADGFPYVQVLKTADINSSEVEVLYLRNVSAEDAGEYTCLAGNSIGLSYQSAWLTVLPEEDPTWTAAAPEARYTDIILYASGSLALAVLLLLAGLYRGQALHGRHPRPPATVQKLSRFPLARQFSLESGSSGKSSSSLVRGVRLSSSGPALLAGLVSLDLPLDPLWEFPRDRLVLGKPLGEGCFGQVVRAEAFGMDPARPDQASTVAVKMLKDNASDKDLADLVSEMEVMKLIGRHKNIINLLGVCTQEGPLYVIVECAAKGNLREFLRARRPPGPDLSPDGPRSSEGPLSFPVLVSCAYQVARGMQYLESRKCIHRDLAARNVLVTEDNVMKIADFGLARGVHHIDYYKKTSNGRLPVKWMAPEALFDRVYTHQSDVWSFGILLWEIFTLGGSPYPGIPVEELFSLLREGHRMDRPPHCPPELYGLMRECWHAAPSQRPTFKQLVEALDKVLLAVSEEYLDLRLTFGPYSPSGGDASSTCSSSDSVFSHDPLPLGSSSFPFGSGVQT
Chain of UniProt P78368 (whole entry, looked up): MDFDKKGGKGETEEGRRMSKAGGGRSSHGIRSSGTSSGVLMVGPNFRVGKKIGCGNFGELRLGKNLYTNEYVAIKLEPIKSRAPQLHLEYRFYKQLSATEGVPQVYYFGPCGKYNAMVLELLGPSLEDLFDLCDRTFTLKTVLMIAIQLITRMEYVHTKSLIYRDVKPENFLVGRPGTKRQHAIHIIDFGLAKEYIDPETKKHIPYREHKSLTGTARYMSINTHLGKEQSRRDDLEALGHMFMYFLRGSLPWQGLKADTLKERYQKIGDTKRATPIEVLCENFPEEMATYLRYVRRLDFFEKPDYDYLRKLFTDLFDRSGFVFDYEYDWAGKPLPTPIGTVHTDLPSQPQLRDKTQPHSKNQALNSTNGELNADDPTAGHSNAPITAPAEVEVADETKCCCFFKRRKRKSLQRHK
Chain of UniProt Q02156 (whole entry, looked up): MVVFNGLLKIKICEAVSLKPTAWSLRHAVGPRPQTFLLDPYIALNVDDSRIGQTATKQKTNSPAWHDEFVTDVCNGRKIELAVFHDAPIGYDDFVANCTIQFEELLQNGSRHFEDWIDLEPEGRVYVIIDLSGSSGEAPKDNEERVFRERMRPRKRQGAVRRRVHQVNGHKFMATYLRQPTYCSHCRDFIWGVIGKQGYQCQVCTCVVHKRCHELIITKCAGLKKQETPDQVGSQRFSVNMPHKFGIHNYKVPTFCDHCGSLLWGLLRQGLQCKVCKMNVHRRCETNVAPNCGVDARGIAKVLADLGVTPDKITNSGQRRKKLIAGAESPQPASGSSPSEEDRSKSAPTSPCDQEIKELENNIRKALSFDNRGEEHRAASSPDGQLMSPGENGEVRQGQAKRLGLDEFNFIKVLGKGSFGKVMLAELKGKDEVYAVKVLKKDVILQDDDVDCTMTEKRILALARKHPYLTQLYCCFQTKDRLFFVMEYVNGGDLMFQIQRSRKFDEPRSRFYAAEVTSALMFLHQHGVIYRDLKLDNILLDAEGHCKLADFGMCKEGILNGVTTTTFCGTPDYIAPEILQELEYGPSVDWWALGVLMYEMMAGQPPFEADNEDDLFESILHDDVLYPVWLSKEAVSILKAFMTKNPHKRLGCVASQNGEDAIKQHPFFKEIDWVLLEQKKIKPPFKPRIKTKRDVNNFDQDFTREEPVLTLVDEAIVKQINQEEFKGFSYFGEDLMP
Chain of UniProt P41240 (whole entry, looked up): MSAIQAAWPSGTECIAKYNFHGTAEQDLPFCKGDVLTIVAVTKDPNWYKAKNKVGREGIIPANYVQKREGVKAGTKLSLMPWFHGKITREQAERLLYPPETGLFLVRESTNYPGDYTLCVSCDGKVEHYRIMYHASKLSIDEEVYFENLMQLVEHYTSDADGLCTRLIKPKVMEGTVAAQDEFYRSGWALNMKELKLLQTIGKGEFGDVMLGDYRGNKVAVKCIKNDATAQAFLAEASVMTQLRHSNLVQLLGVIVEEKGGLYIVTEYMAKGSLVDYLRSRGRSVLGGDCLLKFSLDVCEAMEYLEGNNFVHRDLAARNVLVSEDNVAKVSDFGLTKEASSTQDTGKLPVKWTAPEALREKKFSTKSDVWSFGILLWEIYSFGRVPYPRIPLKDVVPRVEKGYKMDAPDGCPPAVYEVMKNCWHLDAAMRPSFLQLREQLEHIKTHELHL
Chain of UniProt P21127 (whole entry, looked up): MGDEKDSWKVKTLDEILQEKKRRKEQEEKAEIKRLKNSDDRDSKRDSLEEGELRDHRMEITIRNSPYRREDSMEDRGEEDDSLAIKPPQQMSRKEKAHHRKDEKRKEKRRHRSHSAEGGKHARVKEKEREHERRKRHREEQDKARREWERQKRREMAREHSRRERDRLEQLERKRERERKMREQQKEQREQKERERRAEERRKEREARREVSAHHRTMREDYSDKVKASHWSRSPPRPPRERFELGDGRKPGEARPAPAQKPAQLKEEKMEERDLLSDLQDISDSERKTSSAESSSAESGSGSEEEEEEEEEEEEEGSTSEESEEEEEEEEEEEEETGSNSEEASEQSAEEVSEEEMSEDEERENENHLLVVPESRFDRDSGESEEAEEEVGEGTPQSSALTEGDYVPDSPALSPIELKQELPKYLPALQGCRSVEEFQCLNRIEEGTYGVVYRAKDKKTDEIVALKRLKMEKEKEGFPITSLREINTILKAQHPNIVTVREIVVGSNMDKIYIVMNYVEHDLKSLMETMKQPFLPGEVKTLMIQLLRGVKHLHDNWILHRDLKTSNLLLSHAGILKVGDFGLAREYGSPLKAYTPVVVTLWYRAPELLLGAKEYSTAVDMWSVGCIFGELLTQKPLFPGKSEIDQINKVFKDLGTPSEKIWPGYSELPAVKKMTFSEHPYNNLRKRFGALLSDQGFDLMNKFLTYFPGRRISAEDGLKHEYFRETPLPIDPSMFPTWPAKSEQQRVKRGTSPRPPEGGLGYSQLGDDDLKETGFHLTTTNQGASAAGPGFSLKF

Sample 1
Organism: Sarcocystis neurona
Effect on: parasite growth
Concentration: 10 µM
Time: 96 h
With Nc1nc(N)nc(-c2cc(Cl)ccc2Cl)n1 the inhibition was -3.5%.
With CN1CC(=O)N2[C@H](c3ccc4c(c3)OCO4)c3[nH]c4ccccc4c3C[C@@H]2C1=O the inhibition was -8.3%.
OCc1cccnc1 has an inhibition of -19.1%.
With Cc1noc(NS(=O)(=O)c2ccc(N)cc2)c1C the inhibition was -17.6%.
The inhibition of CC1COc2c(N3CCN(C)CC3)c(F)cc3c(=O)c(C(=O)O)cn1c23 (stereo not shown) is reported as -4%.

Sample 2
Compound: CC(C)n1cnc(-c2ccc(F)cc2)c1-c1ncc(C(=O)Nc2ccc(N3CCN(C)CC3)cc2)[nH]1
Method: Phase 2a trial
Species: idiopathic pulmonary fibrosis patients
refers to: reticulocyte count increased; 30 mg once daily, grade 1 maximum intensity — “patients with adverse events”: 0%.
The “patients with adverse events” was 0% (refers to: infections and infestations; 30 mg once daily, grade 4 maximum intensity).
It gave 0% for “patients with adverse events” (refers to: weight increased; 30 mg once daily, grade 2 maximum intensity).
For refers to: chest discomfort; 30 mg once daily, grade 3 maximum intensity: “patients with adverse events” read 0%.
For refers to: weight increased; 60 mg once daily, grade 2 maximum intensity: “patients with adverse events” read 0%.
refers to: weight increased; 30 mg once daily, grade 4 maximum intensity — “patients with adverse events”: 0%.
refers to: neutrophil count increased; 60 mg once daily, grade 3 maximum intensity — “patients with adverse events”: 0%.
For refers to: blood bilirubin increased; dose not given, grade 3 maximum intensity, all arms: “patients with adverse events” read 0%.

Sample 3
Compound: O=C(Nc1cccnn1)N1CC(C/C=C/c2cncc(Oc3ccc(C(F)(F)F)cn3)n2)C1
Effect on: cell-free assay
Method: competition with immobilised ligand
Concentration: 1 µM
It gave 95% for remaining binding (Tyrosine-protein kinase JAK1, JH2 (JAK1, Homo sapiens, UniProt P23458)).
For Cyclin-dependent kinase 4 (CDK4, Homo sapiens, UniProt P11802): remaining binding read 86%.
For Cyclin-dependent kinase 11B (CDK11B, Homo sapiens, UniProt P21127): remaining binding read 100%.
The remaining binding was 100% (Casein kinase I isoform gamma-1 (CSNK1G1, Homo sapiens, UniProt Q9HCP0)).
The remaining binding was 100% (Phosphatidylinositol 4-phosphate 5-kinase type-1 alpha (PIP5K1A, Homo sapiens, UniProt Q99755)).
For Ankyrin repeat and protein kinase domain-containing protein 1 (ANKK1, Homo sapiens, UniProt Q8NFD2): remaining binding read 73%.
For Casein kinase I isoform gamma-2 (CSNK1G2, Homo sapiens, UniProt P78368): remaining binding read 100%.
Serine/threonine-protein kinase LATS1 (LATS1, Homo sapiens, UniProt O95835) — remaining binding: 91%.
It gave 63% for remaining binding (Calcium/calmodulin-dependent protein kinase type 1B (PNCK, Homo sapiens, UniProt Q6P2M8)).
For Ephrin type-B receptor 3 (EPHB3, Homo sapiens, UniProt P54753): remaining binding read 100%.

Sample 4
SMILES: c1ccc(-c2n[nH]c3c2oc2ccccc23)cc1
Effect on: enzyme activity
Action: inhibitor
Concentration: 0.5 µM
Relative to: control
The remaining activity was 99.9% (Protein kinase C gamma type (PRKCG, Homo sapiens, UniProt P05129)).
For Aurora kinase C (AURKC, Homo sapiens, UniProt Q9UQB9): remaining activity read 96.7%.
For Serine/threonine-protein kinase Sgk1 (SGK1, Homo sapiens, UniProt O00141): remaining activity read 101%.
For Fibroblast growth factor receptor 4 (FGFR4, Homo sapiens, UniProt P22455): remaining activity read 85.5%.
For Protein kinase C epsilon type (PRKCE, Homo sapiens, UniProt Q02156): remaining activity read 86%.
Ephrin type-A receptor 7 (EPHA7, Homo sapiens, UniProt Q15375) — remaining activity: 104%.
Ribosomal protein S6 kinase alpha-1 (RPS6KA1, Homo sapiens, UniProt Q15418) — remaining activity: 100%.
Tyrosine-protein kinase CSK (CSK, Homo sapiens, UniProt P41240) — remaining activity: 92.6%.

Some of these lines once more (sample 1):
OCc1cccnc1 has an inhibition of -19.1%.
With Nc1nc(N)nc(-c2cc(Cl)ccc2Cl)n1 the inhibition was -3.5%.
With CN1CC(=O)N2[C@H](c3ccc4c(c3)OCO4)c3[nH]c4ccccc4c3C[C@@H]2C1=O the inhibition was -8.3%.
The inhibition of CC1COc2c(N3CCN(C)CC3)c(F)cc3c(=O)c(C(=O)O)cn1c23 (stereo not shown) is reported as -4%.
With Cc1noc(NS(=O)(=O)c2ccc(N)cc2)c1C the inhibition was -17.6%.
